{"data": "Measurements collected from several papers", "note": "Numbered parts are unrelated; each lists some results of a single study. Positions count from the first letter of the parent shown."}
{"data": "Study 1", "target": "Interferon regulatory factor 3, full length, phosphomimetic (IRF3, Homo sapiens, UniProt Q14653, residues 1-427, S386D/S396D/S398D/S402D/T404D/S405D)", "technique": "protein-binding microarray", "form": "double-stranded DNA, one strand shown", "matrix": "in vitro", "tested at": "2540 nM top", "setting": "60-bp whole probe", "together with": "salmon DNA 0.4 mg/ml", "baseline": "random background probes", "direction": "higher = stronger binding", "all sequences stand within": "GCCTAGCAC … GTCTTGATTCGCTTGACGCTGCTG", "Construct (chain)": "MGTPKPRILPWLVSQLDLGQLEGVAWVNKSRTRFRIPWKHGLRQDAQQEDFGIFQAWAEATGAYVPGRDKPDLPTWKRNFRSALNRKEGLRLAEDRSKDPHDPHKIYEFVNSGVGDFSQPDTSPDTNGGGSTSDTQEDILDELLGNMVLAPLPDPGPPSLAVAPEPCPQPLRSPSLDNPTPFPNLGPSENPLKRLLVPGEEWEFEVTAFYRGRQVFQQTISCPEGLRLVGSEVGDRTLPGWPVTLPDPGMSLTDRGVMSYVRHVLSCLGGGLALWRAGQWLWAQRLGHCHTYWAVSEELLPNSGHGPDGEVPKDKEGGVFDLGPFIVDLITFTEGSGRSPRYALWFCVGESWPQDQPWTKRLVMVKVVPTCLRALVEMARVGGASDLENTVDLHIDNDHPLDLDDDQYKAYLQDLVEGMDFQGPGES"}
{"Sequence": "GACGGTTTCCTACTGCGGACGTGCTAG", "fitted relative affinity": "5.66 z-score"}
{"Sequence": "TTAGGTTTCGGGACTGGGTAAGTGCTA", "fitted relative affinity": "4.21 z-score"}
{"Sequence": "ATAGGACTGCTTATCCTTTAGTGCTAG", "fitted relative affinity": "0.16 z-score"}
{"Sequence": "GACGGTTTCGCCTTTCGGGACGTGCTA", "fitted relative affinity": "3.91 z-score"}
{"Sequence": "TCAACACTAATTTTCATACTGTGCTAG", "fitted relative affinity": "0.617 z-score"}
{"Sequence": "GACGGTTTCAACTATCGGGACGTGCTA", "fitted relative affinity": "1.58 z-score"}
{"Sequence": "TTTCCCATGAGTCTCAAAATGTGCTAG", "fitted relative affinity": "3.53 z-score"}
{"Sequence": "GACGATTTCCGGACTGGAGACGTGCTA", "fitted relative affinity": "1.9 z-score"}
{"Sequence": "GACGGAATGCTTCTCCTGACGTGCTAG", "fitted relative affinity": "-0.0572 z-score"}
{"Sequence": "GACGATTCCAGTTACGAGACGTGCTAG", "fitted relative affinity": "1.17 z-score"}
{"Sequence": "GACGAACTGGGGTTTGGAGACGTGCTA", "fitted relative affinity": "-0.476 z-score"}
{"Sequence": "TTAGGTTTTCTTATCCTTTAGTGCTAG", "fitted relative affinity": "2.62 z-score"}
{"Sequence": "TTAGATTTCAGACTGGATTTGTGCTAG", "fitted relative affinity": "0.635 z-score"}
{"Sequence": "GACGTTATCAGACTGGAGACGTGCTAG", "fitted relative affinity": "0.466 z-score"}
{"Sequence": "GAAGGTTCCCTTTTCCTGACGTGCTAG", "fitted relative affinity": "6.95 z-score"}
{"Sequence": "GACGAACTGGGGTATCGACACGTGCTA", "fitted relative affinity": "-0.505 z-score"}
{"Sequence": "GACGGTATCGGGTTTCGGGGCGTGCTA", "fitted relative affinity": "2.72 z-score"}
{"Sequence": "TTAGGTATCGGTCACGGTTAGTGCTAG", "fitted relative affinity": "1.46 z-score"}
{"Sequence": "TCAAGAATGGGGTTTGCAACTGTGCTA", "fitted relative affinity": "-0.708 z-score"}
{"Sequence": "AAGTTTATACCTTAGGTTTTGTGCTAG", "fitted relative affinity": "0.196 z-score"}
{"Sequence": "TCATACCTCATCTTTCCCACTGTGCTA", "fitted relative affinity": "1.11 z-score"}
{"Sequence": "GACTGTCTCGGACTGGGGACGTGCTAG", "fitted relative affinity": "-0.0874 z-score"}
{"Sequence": "CCTTATCCCTAATCTCAGCCTGTGCTA", "fitted relative affinity": "2.22 z-score"}
{"Sequence": "TTAGGACTGTGGACTGGGTTAGTGCTA", "fitted relative affinity": "-1.04 z-score"}
{"Sequence": "TCACTTTCCATTTCTGTTACTGTGCTA", "fitted relative affinity": "8.9 z-score"}
{"data": "Study 2", "target": "RNA binding protein fox-1 homolog 2, RRM domain, GST-SBP tag (RBFOX2, Homo sapiens, UniProt O43251-10, residues 100-194)", "technique": "RNA Bind-n-Seq", "form": "RNA", "matrix": "in vitro", "tested at": "365 nM", "setting": "natural RNA segment, single round, ends assumed", "baseline": "no-protein control", "direction": "higher = stronger binding", "all sequences stand within": "GGGAGUUCUACAGUCCGACGAUC … UGGAAUUCUCGGGUGCCAA", "Construct (chain)": "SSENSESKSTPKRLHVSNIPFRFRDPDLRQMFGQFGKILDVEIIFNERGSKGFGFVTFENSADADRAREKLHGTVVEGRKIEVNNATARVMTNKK"}
{"Sequence": "AAGUAUGGGCAUAAACUGGCUUCUGAAUCCCUUUCCAGAGUGUUGGAUCCAUUUCCCUGGUCUUGGCCUCACUCUCAUGCAGGCUUUCCUCUUGUGUUGGCAAGAUGGCU", "RBNS enrichment (R)": 0.347}
{"Sequence": "ACCUAUACAGAGAGCAAACAAUGAGAUAAGAGGAACUGUCGCAAAGCUUUCCACUGAAACACAGGUCACCCUGGAAGUUUGCAGGGUUUGCUGUGGGCAUCUGUAGAUUU", "RBNS enrichment (R)": 0.849}
{"Sequence": "UUGGUAUUCACUUGGGUUUGAUAAUUGAUCUGAGCUACCUCAUUGAAUGUUUUUGGAAAGGUGUUUUUUGGUAUGCAAGUCAGCUUUGCCUCACAGUUGAAAAUGUUCGG", "RBNS enrichment (R)": 0.838}
{"Sequence": "AUGACUUUGAGCCAUCUCCAGAGAAGGAAGUGAAAAUUGUGGCUCCCCAGUCGAUUGGGACACAGUCUCUCUUUGUCUAGGUAACACAUGGUGACACAUAGCAUUGAACU", "RBNS enrichment (R)": 0.336}
{"Sequence": "CAGCGCUUCCUUCCUGGGAAGCCUGUCGUCUGGGUUAAUCUGUUGAUGUAUCUUCAUUGUCAUCUCUCAUCCUGAUGUGUGCCAGUUAGAGGACUGUCUGGUAUCCAAGA", "RBNS enrichment (R)": 0.277}
{"Sequence": "UGGUUGCUGGAGGAGGCCAGUGUAGAGCCAGUGAGAGAACUAGGAAUGACACUCAGGUUCACUGUGGAAAACUGUUCUUGGGACUGUCUCAACUGUGCAAAAAACAAAAG", "RBNS enrichment (R)": 0.77}
{"Sequence": "CUGGGAGCUCUUGGUUACCCCCUUGUCUGACUGCUUGGUGGCAGGCACCCUGCCUGUGAGGGCCACUUUCCUCUUCUAGUAGCUGUUGUCUGGUGGGGACGCAGUGGCCC", "RBNS enrichment (R)": 3.36}
{"Sequence": "GAAUUUGUAUUGCUUGAUAAACUAUUAGCUUGUAAAUUAAAAUUUUUUUCUUUACCUCAGUUAACUUAAGUAAUGGACCAAUAAACCUAUCAAAGCUGCUUCAUUUCUUC", "RBNS enrichment (R)": 0.729}
{"Sequence": "CGUGGGGCCUUUCCUUCUCGGCUGGUUCUCUGUGACGGUGGCGUCGGCUCGCCUCUGCUCCUUUCAUCUAGAAAGAAGCCACUGACCCUGACAGCCCACGGCGGGUACAC", "RBNS enrichment (R)": 0.268}
{"Sequence": "GUUGCUAAUCAUAUGUUGCUUUAUCCAUAUGCUGUAUGACUCCAUAACAUGUAUGACUUUAAAUGGCUGGAACUGCUCAUAUGUGGACUAAACUAUUUUUGACAUGUUCA", "RBNS enrichment (R)": 0.648}
{"Sequence": "UUGUAAAGGCCCCACGAGAGCGGGCCAGGCCGUGUGCCUCAGGCCCUUCUCCCUGGGUGUGCUUAAGGGGGCUCCUUGGGCCCGCCUCCCCAGGAGGUAGAAAAUGAGUG", "RBNS enrichment (R)": 0.258}
{"Sequence": "UCUGUCAUAGGCAUAGAGAGUUGCACAUAAAAAAUACCGAAGAAAACCCAAAAUUCAAUCAACAAUUCUGUCUUAUUGAAGAGUUGCUAGGAUUCAGAGUAAAACUCAAA", "RBNS enrichment (R)": 0.273}
{"data": "Study 3", "target": "CCND1, cyclin fold, Cln2 fusion (human)", "technique": "yeast growth competition, sequencing", "matrix": "yeast", "setting": "weak parent motif", "baseline": "not given", "direction": "higher = stronger binding", "starting sequence": "PKMYT1 docking peptide (human); SFEPRNLLSLFED"}
{"Substitution": "SFEPRELLSLFED [N6E]", "normalised enrichment score": 0.691}
{"Substitution": "SQEPRNLLSLFED [F2Q]", "normalised enrichment score": 0.834}
{"Substitution": "SSEPRNLLSLFED [F2S]", "normalised enrichment score": 0.24}
{"Substitution": "SFKPRNLLSLFED [E3K]", "normalised enrichment score": 0.304}
{"Substitution": "SFEPRNDLSLFED [L7D]", "normalised enrichment score": 0.941}
{"Substitution": "SKEPRNLLSLFED [F2K]", "normalised enrichment score": -0.0764}
{"Substitution": "SFEPRNLLTLFED [S9T]", "normalised enrichment score": 0.478}
{"Substitution": "SFENRNLLSLFED [P4N]", "normalised enrichment score": 0.913}
{"Substitution": "CFEPRNLLSLFED [S1C]", "normalised enrichment score": 0.596}
{"Substitution": "SEEPRNLLSLFED [F2E]", "normalised enrichment score": 0.473}
{"Substitution": "SFEPRNLLSVFED [L10V]", "normalised enrichment score": 0.285}
{"Substitution": "SFEPRNLLMLFED [S9M]", "normalised enrichment score": 1.11}
{"Substitution": "SFEPRNHLSLFED [L7H]", "normalised enrichment score": 0.918}
{"data": "Study 4", "target": "RING finger protein unkempt homolog, zinc fingers 1-6, GST-SBP tag (UNK, Homo sapiens, UniProt Q9C0B0, residues 30-357)", "technique": "RNA Bind-n-Seq", "form": "RNA", "matrix": "in vitro", "tested at": "not given", "setting": "RNA with constant flanks, human and mouse sites, ends assumed", "baseline": "input RNA pool", "direction": "higher = stronger binding", "all sequences stand within": "GGGAGUUCUACAGUCCGACGAUC … CAACAGAGGAUUGAGCAUCA", "Construct (chain)": "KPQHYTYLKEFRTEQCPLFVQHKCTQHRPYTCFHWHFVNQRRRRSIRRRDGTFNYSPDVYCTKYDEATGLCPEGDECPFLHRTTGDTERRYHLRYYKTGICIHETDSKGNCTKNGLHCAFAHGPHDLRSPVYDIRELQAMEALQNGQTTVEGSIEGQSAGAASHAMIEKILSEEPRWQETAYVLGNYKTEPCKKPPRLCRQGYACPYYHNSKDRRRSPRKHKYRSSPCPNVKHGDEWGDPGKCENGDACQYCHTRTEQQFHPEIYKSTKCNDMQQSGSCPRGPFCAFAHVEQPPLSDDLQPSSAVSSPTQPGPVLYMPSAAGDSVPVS"}
{"Sequence": "UUUGUUUUGUUUGGGGGCCUUUUUUUUUUCCCUAGAAGAUAUGGAGAGCCUUCUUGUCCAACUAGAUUGUUCACCAUCAGCCUGGAACUCUCACUGAACCACCACAGAAAUCGUGGCGAU", "bound/input enrichment": "0.259 ratio"}
{"Sequence": "CACGAGCAUUGGCUUCGUGAAUUGAGACGGCUCCGCCUGAGGAUAGCAGGAGUGGCGGGGUCGCCGCCGUCCGAAAGAUGAGCCGGAAAGCCUAAGUCGGAGACAGCCGCCUUGGGGCCC", "bound/input enrichment": "0.167 ratio"}
{"Sequence": "UCUGCUCGAAGACUGGACCCAGAGUACUGGAAGACCAUCCUGAGUUGUGUAUAUGUUUUUAUAGUAUUUGGGUUUACGUCUUUCAUUAUGGUUAUUGUUCAUGAGCGUGUGCCUGACAUG", "bound/input enrichment": "0.238 ratio"}
{"Sequence": "AGCGUCAUGAAGCCAGCAGUGGCCGUGCUAUCCACAGGCUCUGUCUGCUUCCCACUGAACAGACCCAUUCUAGCUUUCUAUCACUCAAAGAACCAAGGUUUUGGAAAGCUGGCAGUGCUU", "bound/input enrichment": "0.0511 ratio"}
{"Sequence": "AGUGUGAGGGGCGGGAGGGAAAGAAGAGGGGUUUAAAUUAGAUUUUUUAAAACACAGAGCAAGCGCCAGAGGCGUCGGCAUCCCAGGUGUCGCCGCUUCCUGCUGCACAGGGCUCGGCGU", "bound/input enrichment": "6.87 ratio"}
{"Sequence": "UCUCAGACACACACUCCAGAACAGAUGGUAUCCAGAUGCCUUAUGGGGACAUCCUUCUCCACACAGGCGAUUUCACCGAGCUGGGACUGCCCUCAGAGGUUAAGAAGUUUAAUGACUGGU", "bound/input enrichment": "0.248 ratio"}
{"Sequence": "AUCCCCAACGUGCUGCGCCGCACUCGCGAGCGCAUCCUGCGCGUGGCGCCGCCGUUUGUAGUGGUCUACCUGAUCUACACAUGGGGCAACCAGGAGUUUGAGCAGUCGAAAAGGAAGAAU", "bound/input enrichment": "0.135 ratio"}
{"Sequence": "UUUAACUCUCUUCUCCUCAGACACAGUGGCACUGCUUAUCUCCAAAUGGUGUGAUCGUCUCCUCAGUGAGCGGCGGCUCCCACUGCGCUGUGGGUAGUGUGUGACUGUGGCUGUACUGUA", "bound/input enrichment": "0.175 ratio"}
{"Sequence": "AAAGUUAUCUCUCUUUAGGCACGAAGAGCAAUUCAGAAAAAUAUGACUUUUAUUGAUGAAAAUAGAGUUAUGCUUAAAUAUCUCUUCCCUUUGAAUGAAAUUGUGGUAGAUUUUUAUGAC", "bound/input enrichment": "1.44 ratio"}
{"Sequence": "AGCACAACACCAGCUAAGCUCAGGAACCCUUGCACAAGUGAACAGAACUGCACCAGCCCAUUUAGCUACAAAAAUGUGCUCAGUCUUACUAAUAAAGGAGAAGUAUUUAAUGAACUUGUU", "bound/input enrichment": "1.8 ratio"}
{"Sequence": "GGAAUGCAGCCUGCUCACAGCGCCCUGAUGCCCUCCGUGACACACAUACCCACCCCUCCACAUAGAACACAAGUCCCCCGGUGCAUGCACCAUGCCCACUGCCUUUCUUUGCACUGAUGU", "bound/input enrichment": "0.61 ratio"}
